Published values pooled from the literature.
± gives the spread as reported.
Organism: Plasmodium falciparum

CCn1cc(C2CC2)c2c(CN3CCC(F)(F)C(C)(C)C3)n(C)nc2c1=O  EC50 (parasite growth; 3D7): 15.8 nM
O=S(=O)(c1ccc(-c2ccc3nccc(Nc4ccccn4)c3c2)cc1)N1CCOCC1  EC50 (parasite growth, SYBR Green; W2): 1500 nM
O=C(NCc1nc(-c2ccccc2)cs1)[C@H]1CCCN(C(=O)CO)C1  EC50 (SYBR Green growth; asexual blood-stage parasites, 3D7; 72 h): 1200 ± 400 nM
Cc1cc(Nc2ccnc3ccc(-c4ccc(S(=O)(=O)N5CCOCC5)cc4)cc23)on1  EC50 (parasite growth, SYBR Green; TM91C235): 2700 nM
Cn1nc2c(=O)n(C3CC3)ncc2c1[C@](O)(c1cnc(C(F)(F)F)c(Cl)c1)C(F)(F)F  EC50 (parasite growth): 3.5 nM
CCOCCN1CCC[C@H](C(=O)NCc2nc(-c3ccccc3)cs2)C1  EC50 (SYBR Green growth; asexual blood-stage parasites, 3D7; 72 h): > 5000 nM
CCN(c1ccc(C)cc1)c1ccc(NC(=O)CN(C)c2ccccc2N2CCCC2=O)cn1  EC50 (ring-stage invasion, nanoluciferase; 3D7 NanoLuc late schizonts; 4 h pulse): 5 nM
CCn1ccc2c([C@](O)(c3ccc(C(F)(F)F)nc3)C3CC3)n(C)nc2c1=O  EC50 (parasite growth; 3D7): 7.94 nM
COc1ncc(Nc2ccnc3ccc(-c4ccc(S(=O)(=O)N5CCOCC5)cc4)cc23)cn1  EC50 (parasite growth, SYBR Green; W2): 1600 nM
COCC(=O)N1CCCC(S(=O)(=O)NCc2nc(-c3ccccc3)cs2)C1 (racemic)  EC50 (SYBR Green growth; asexual blood-stage parasites, 3D7; 72 h): > 5000 nM
O=S(=O)(c1ccc(-c2ccc3nccc(Nc4ccncc4)c3c2)cc1)N1CCOCC1  EC50 (parasite growth, SYBR Green; W2): 930 nM
CN(C)CC(=O)N1CCC[C@H](C(=O)NCc2nc(-c3ccccc3)cs2)C1  EC50 (SYBR Green growth; asexual blood-stage parasites, 3D7; 72 h): > 5000 nM
CC[C@](N)(c1cnc(C(F)(F)F)c(Cl)c1)c1c2ccn(C3CC3)c(=O)c2nn1C  EC50 (parasite growth; 3D7): 2510 nM

A few entries again:
COCC(=O)N1CCCC(S(=O)(=O)NCc2nc(-c3ccccc3)cs2)C1 (racemic)  EC50 (SYBR Green growth; asexual blood-stage parasites, 3D7; 72 h): > 5000 nM
